# Measured values pooled from the literature.
# Numbered parts are unrelated; each lists some results of a single study. Positions count from the first letter of the parent shown.
# UniProt P54753, sequence (whole entry, looked up): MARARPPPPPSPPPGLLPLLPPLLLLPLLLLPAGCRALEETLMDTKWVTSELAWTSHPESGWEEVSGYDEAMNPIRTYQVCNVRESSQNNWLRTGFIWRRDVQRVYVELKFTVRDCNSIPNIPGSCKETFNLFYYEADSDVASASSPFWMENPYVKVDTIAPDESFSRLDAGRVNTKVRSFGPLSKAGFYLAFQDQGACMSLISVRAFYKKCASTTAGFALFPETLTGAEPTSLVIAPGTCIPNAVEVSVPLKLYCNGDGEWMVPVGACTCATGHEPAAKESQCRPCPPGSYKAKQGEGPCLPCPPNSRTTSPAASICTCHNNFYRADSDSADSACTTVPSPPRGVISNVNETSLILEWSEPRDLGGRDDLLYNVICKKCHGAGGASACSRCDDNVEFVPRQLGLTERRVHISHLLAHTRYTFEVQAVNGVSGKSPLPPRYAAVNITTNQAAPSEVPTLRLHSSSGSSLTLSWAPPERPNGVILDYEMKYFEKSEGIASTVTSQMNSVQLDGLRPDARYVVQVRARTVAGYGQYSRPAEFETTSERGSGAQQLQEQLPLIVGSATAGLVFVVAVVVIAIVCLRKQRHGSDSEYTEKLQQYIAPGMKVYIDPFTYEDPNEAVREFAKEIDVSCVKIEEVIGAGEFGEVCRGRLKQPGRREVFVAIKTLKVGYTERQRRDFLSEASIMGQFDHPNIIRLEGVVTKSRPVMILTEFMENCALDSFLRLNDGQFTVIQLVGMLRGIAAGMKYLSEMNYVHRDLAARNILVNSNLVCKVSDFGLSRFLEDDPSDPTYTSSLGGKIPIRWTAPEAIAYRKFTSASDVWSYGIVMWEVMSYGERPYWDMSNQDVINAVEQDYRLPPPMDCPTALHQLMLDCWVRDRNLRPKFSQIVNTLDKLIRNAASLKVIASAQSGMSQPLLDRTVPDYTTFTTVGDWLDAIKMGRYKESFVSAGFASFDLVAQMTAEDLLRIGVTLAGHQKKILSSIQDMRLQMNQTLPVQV

# Series 1
# Target: Prothrombin, mature alpha-thrombin (F2, Homo sapiens, UniProt P00734)
# Method: aptamer microarray, sandwich
# Molecule type: DNA with 2'F-ANA
# Matrix: in vitro
# Concentration: 200 nM
# Setting: whole 15-mer aptamer, many near background
# Together with: Cy3 exosite-II aptamer, 400 nM
# Reading: higher = stronger binding
# Strand: GGTTGGTGTGGTTGG
Modification,mean fluorescence intensity
2'F-ANA at 4 5 7 12 15,146 a.u.
2'F-ANA at 5 7 8 9 10 11 13,77.2 a.u.
2'F-ANA at 1 4 6 7 8 9 12 13 14,59.2 a.u.
2'F-ANA at 1 4 5 6 7 8 9 10 11 15,50 a.u.
2'F-ANA at 2 4 6 7 13,172 a.u.
2'F-ANA at 1 3 4 7 11 13 14 15,95.3 a.u.
2'F-ANA at 2 3 5 9 10 11 15,55.7 a.u.
2'F-ANA at 1 2 3 5 6 7 8 9 13 14 15,54.4 a.u.

# Series 2
# Target: Histone acetyltransferase KAT6A, both winged helices, GST fusion (KAT6A, Homo sapiens, UniProt Q92794, residues 1-181)
# Method: protein binding microarray
# Molecule type: double-stranded DNA, one strand shown
# Matrix: in vitro
# Concentration: not given
# Setting: 8-mer, flanks averaged, mean of 2 arrays, mostly near background
# Reference: not given
# Reading: higher = stronger binding
# Construct (chain): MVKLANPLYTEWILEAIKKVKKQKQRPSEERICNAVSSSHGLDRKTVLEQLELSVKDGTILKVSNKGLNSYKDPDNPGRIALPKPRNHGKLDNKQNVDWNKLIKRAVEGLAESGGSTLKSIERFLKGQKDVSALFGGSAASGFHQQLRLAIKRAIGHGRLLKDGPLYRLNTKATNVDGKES
Strand,E-score
CTATATCC,-0.143
ACGGGTGG,0.162
CACATGTA,0.0113
GCACGAAA,-0.0333
ACTGAGGC,-0.00266
GCCGAGGA,0.114
CGGGCTAA,0.204
ACGGACCT,0.193

# Series 3
# Target: ATF2, bZIP domain (human)
# Method: DHFR protein complementation
# Matrix: yeast
# Setting: single substitutions, most at no-binding floor
# Reference: wild-type JUN-FOS pair
# Reading: higher = stronger binding
# Starting sequence: JUN, bZIP domain (human); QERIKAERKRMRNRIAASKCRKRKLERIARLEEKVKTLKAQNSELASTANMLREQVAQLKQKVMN; partner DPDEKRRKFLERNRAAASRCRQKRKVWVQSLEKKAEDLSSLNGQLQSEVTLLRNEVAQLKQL
Substitution,binding fitness [natural log]
K36V,-1.4
Q55I,-1.48
N42G,-1.48
S43R,-1.27
T37Y,-1.28
E54S,-1.45
E32F,-1.54
A46F,-1.48

# Other studies, line by line
Compound,target,effect on,action,concentration,reference,quantity,result
COc1cc2ncnc(Nc3ccc(O)c(Br)c3)c2cc1OC,"Ephrin type-B receptor 3 (EPHB3, Homo sapiens, UniProt P54753)",enzyme activity,inhibitor,0.5 µM,control,remaining activity,88.1%

# Some of these lines once more (series 2):
Strand,E-score
CTATATCC,-0.143
